Results collected from several papers.
Parts stem from different laboratories: compare values within a part only. Positions count from the first letter of the parent shown.

Study 1 — target: CCNB1, cyclin fold, Cln2 fusion (human); method: yeast growth competition, sequencing; sample: yeast; setting: strong parent motif; relative to: not given; reading: higher = stronger binding
Parent: INSM1 docking peptide (human); PKAIRKLHFEDEV; partner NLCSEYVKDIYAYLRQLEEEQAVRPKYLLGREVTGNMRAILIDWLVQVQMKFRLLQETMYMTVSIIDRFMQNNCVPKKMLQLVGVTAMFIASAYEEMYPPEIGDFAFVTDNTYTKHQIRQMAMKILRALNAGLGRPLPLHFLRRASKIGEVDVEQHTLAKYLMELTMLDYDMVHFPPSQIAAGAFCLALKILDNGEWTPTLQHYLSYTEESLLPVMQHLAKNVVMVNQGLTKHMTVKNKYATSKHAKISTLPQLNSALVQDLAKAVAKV
Substitution | normalised enrichment score
PKAIRHLHFEDEV [K6H] | 1.02
PKAIRKLDFEDEV [H8D] | 3.38
PKAARKLHFEDEV [I4A] | 1.2
PKAIRKSHFEDEV [L7S] | 0.38
PKAIRKLHFEDLV [E12L] | 1.67
PKAQRKLHFEDEV [I4Q] | 1.8
PKAKRKLHFEDEV [I4K] | 1.34
PKAIRKDHFEDEV [L7D] | -0.123
PKAERKLHFEDEV [I4E] | 1.32
PKAIRKLHFEDIV [E12I] | 1.33

Study 2 — method: protein-binding microarray; form: double-stranded DNA, one strand shown; sample: in vitro; tested at: not given; reading: higher = stronger binding
Target: Myc proto-oncogene protein, bHLH-zipper, MAX partner unstated (MYC, Homo sapiens, UniProt P01106, residues 368-449)
Sequence of UniProt P01106 (368-449, looked up): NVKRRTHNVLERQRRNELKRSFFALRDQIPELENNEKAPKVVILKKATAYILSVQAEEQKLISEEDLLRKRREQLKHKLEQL
Setting: k-mer, scored over probes, only values ≥0.25
Strand | E-score
CCCATGAG | 0.313
ACGCCCAC | 0.352
ATGGCCAT | 0.291
GCCCACGA | 0.304
ACATGGCT | 0.328
GCACGACA | 0.265
ACGTGGCG | 0.453
CACCTCCA | 0.253
CATGGTAC | 0.393
CGCCACAC | 0.36
CCGCCGCG | 0.252

Study 3 — method: protein-binding microarray; form: double-stranded DNA, one strand shown; sample: in vitro; tested at: 250 nM; setting: 60-bp whole probe; together with: salmon DNA 0.4 mg/ml; relative to: random background probes; reading: higher = stronger binding; shared flanks, not repeated: GCCTAGCAC … GTCTTGATTCGCTTGACGCTGCTG
Target: Interferon regulatory factor 5, full length, phosphomimetic (IRF5, Homo sapiens, UniProt Q13568-2, residues 1-514, K96S/S451D/S453D/S456D/S462D)
Strand | log fluorescence
TAGGGACTCAGGTCTCCCTTGGTGCTA | -0.648 z-score
GACGATTTCGGGACTTGAGACGTGCTA | 1.44 z-score
TCACCTAGCCATTATGAGACTGTGCTA | -0.422 z-score
TCAACTCTGAACCTTGGACTGTGCTAG | -0.303 z-score
TTAGGTCTCGATCTCGGTTAGTGCTAG | 0.61 z-score
TTAGGACTGTGGTTTCGGTTAGTGCTA | 7.85 z-score
TCAGATTTCAGGAATTGAACTGTGCTA | 0.654 z-score
TTAGATTTCAGACTGGAATAGTGCTAG | 0.341 z-score
AATTTGAGAACGGAAACCAAGTGCTAG | 0.5 z-score

Further values, each from its own experiment
Substance | target | assay | test system | setting | scale | measurement | result
PhoQ, residues 284 288 289 292 302 303 QWQEDG | PhoP, residues 12 14 15 18 19 NYFTV (Escherichia coli, UniProt P23836) | Sort-seq, refers to: YFP reporter | E. coli | PhoQ-PhoP variant library, together with: 10 µM Mg2+ | relative to: high Mg2+ state, higher = stronger signaling | fold induction | 0.646
